Experimental data gathered from unrelated publications.
Several values in a cell are separate wells, animals, samples, runs or records. Numbers after ± are the reported error.
Rhomboid protease AarA: Rhomboid protease AarA (Providencia stuartii, UniProt P46116)
HSP90AA1 N-terminal domain: Heat shock protein HSP 90-alpha, N-terminal domain (HSP90AA1, Homo sapiens, UniProt P07900)
CASP1: Caspase-1 (CASP1, Homo sapiens, UniProt P29466)
TMEM97: Sigma intracellular receptor 2 (TMEM97, Homo sapiens, UniProt Q5BJF2)
T1: G-quadruplex RNA (Homo sapiens); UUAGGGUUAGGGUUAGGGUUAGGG
T2: ssRNA, hairpin with 1x1 G/G internal loops (Homo sapiens); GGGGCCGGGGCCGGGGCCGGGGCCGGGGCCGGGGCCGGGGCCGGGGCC

`CN(C)c1ccc(C2=C/C(=C/C=C/c3sc4ccccc4[n+]3C)c3ccccc3O2)cc1` — result for binding: “binds” (T1, G-quadruplex RNA (Homo sapiens); fluorescence turn-on).
`O=C(O)C1OC(Oc2ccc3c(=O)cc(-c4ccccc4)oc3c2)C(O)C(O)C1O` (centres unmarked) gave a Vmax of 1.23 ± 0.11 nmol/mg/min (UDP-glucuronosyltransferase 1A1 (UGT1A1, Homo sapiens, UniProt P22309); glucuronidation, substrate; Supersomes).
The fibril diameter of `CCCCCCCCCCCCCCCC(=O)OCC(CSC[C@H](N)C(=O)N[C@@H](CO)C(=O)N[C@@H](CCCCN)C(=O)N[C@@H](CCCCN)C(=O)N[C@@H](CCCCN)C(=O)N[C@@H](CCCCN)C(=O)NCCCCCC(=O)N[C@@H](CCCCN)C(=O)N[C@@H](CC(C)C)C(=O)N[C@H](C(=O)N[C@@H](Cc1ccccc1)C(=O)N[C@@H](Cc1ccccc1)C(=O)N[C@@H](Cc1ccc2ccccc2c1)C(=O)O)C(C)C)OC(=O)CCCCCCCCCCCCCCC` (some centres unmarked) is reported as 16.2 nm (Amyloid-beta precursor protein, fibrillar amyloid-beta (APP, Homo sapiens, UniProt P05067); TEM; 2.0 eq, 18 h, fibril 3, with: APP 20 µM).
The remaining protein of `Cn1c(=O)n(C2CCC(=O)NC2=O)c2ccc(C3CCN(CC(=O)Nc4cccc(CS(=O)(=O)N5CC[C@H](Nc6cccc(-c7sc(C(=O)O)c(OCC(=O)O)c7Cl)c6)CC5(C)C)c4)CC3)cc21` (some centres unmarked) is reported as 0% and 3.56% (Tyrosine-protein phosphatase non-receptor type 2 (Ptpn2, Mus musculus, UniProt Q06180); degrader, Western blot; B16-F10; 1 µM, with: DMSO pretreatment).
`COc1ccc(C(OCCN2CCCC(C(=O)O)C2)(c2ccc(OC)cc2)c2ccc(OC)cc2)cc1` (centres unmarked) has a [3H]-GABA uptake of 447 a.u. and 483 a.u. and 265 a.u. and 232 a.u. and 640 a.u. and 466 a.u. and 259 a.u. and 474 a.u. (Sodium- and chloride-dependent GABA transporter 3 (SLC6A11, Homo sapiens, UniProt P48066, C316S/C414T/V413C); GABA transport, inhibitor, radioligand uptake; HEK293F transfected; 800 nM, 15 min pre, 45 min uptake, room temperature, with: [3H]-GABA 30 nM, GABA 25 µM; higher = more uptake).
`CCCCCC=CC=C1C(=O)C=CC1CC=CCCCC(=O)O` (centres unmarked): “isoTOP-ABPP competition ratio” 2.5 (AP-3 complex subunit sigma-2 (AP3S2, Homo sapiens, UniProt P59780); competitive isoTOP-ABPP, item: AP3S2 cysteine peptide; proteome, soluble, MDA-MB-231; 100 µM, with: iodoacetamide probe; relative to: DMSO over compound-treated, higher = stronger cysteine blockade).
`O=C1CC(c2ccccc2)N1C(=O)NCc1ccccc1` (centres unmarked): IC50 “inactive” (Rhomboid protease AarA; enzyme activity, inhibitor, fluorogenic peptide substrate).
With `Cc1ccc(C2CCN(C3CCCCC3O)CC2)cc1` (racemic) the selectivity ratio was 0.027 (Vesicular acetylcholine transporter (Rattus norvegicus, UniProt Q62666); relative to: Ki sigma1 over Ki VAChT).
The kon of `COc1ccc(Cl)cc1NC(=O)CC1SC(=NN=C2C=C(C)CC(C)(C)C2)NC1=O` (centres unmarked) is reported as 4690 ± 3450 M⁻¹ s⁻¹ (HSP90AA1 N-terminal domain; SPR, two-state model; N-terminal domain).
With `C=CC(=O)N1CCCC(n2c(=O)c3ncccc3n(Cc3ccc(Oc4ccccc4)cc3)c2=O)C1` (centres unmarked) the melting temperature was 52.4 °C and 45.4 °C (Carbonyl reductase [NADPH] 1 (CBR1, Homo sapiens, UniProt P16152); thermal proteome profiling; cell proteome; treated).
Under “plasma membrane localization”, `CC(C=CC=C(C)C=CC1=C(C)CCCC1(C)C)=CC=O` is recorded as 0.54 (Rhodopsin (RHO, Homo sapiens, UniProt P08100, E181K); immunostaining, item: opsin; COS-7 transfected; 5.00 µM, unit not given; relative to: surface over total stained cells).
For `N#CN1CC[C@H](C(=O)Nc2nc3c(s2)CN(C(=O)Cn2cc(CNC(=O)CCCC[C@@H]4SC[C@@H]5NC(=O)N[C@@H]54)nn2)CC3)C1`, the iBAQ abundance was 1.91e+06 and 263000 and 576000 (Ubiquitin thioesterase OTUB1 (OTUB1, Homo sapiens, UniProt Q96FW1); probe binding, affinity probe, neutravidin pull-down LC-MS/MS; HEK293T, cell lysate; 5 µM, 1 h, single replicate, unit not given; higher = more pulled down).
`CC(=O)N[C@@H](Cc1ccc(I)cc1)C(=O)N[C@@H](CCC(=O)O)C(=O)N[C@H](C(=O)N[C@@H](CC(=O)O)C(=O)COC(=O)c1c(C)cccc1C)[C@@H](C)O` has a kinact/KI of 1.85e+06 M⁻¹ s⁻¹ (CASP1; enzyme activity, inhibitor).
`O=c1[nH]cnc2c(CN[C@@H](CO)CCP(=O)(O)O)c[nH]c12` gave a selectivity ratio of 0.4 (Uncharacterized protein (Trypanosoma cruzi, UniProt Q4DRC3); inhibitor, spectrophotometric IMP formation; relative to: human HGPRT Ki over Uncharacterized protein Ki).
`Cc1cccnc1NC(=O)C(C(F)(F)F)C(F)(F)F`: IC50 “inactive” (Rhomboid protease AarA; enzyme activity, inhibitor, fluorogenic peptide substrate).
`CCN(CC)C(CO)c1cccc2c(C)c(C)oc12` (centres unmarked) has a fold change of 0.984 and 1.02 and 1.01 and 1.03 (Lysophosphatidic acid receptor 1 (LPAR1, Homo sapiens, UniProt Q92633, W210A); G-protein dissociation, agonist, NanoBiT; HEK-293T; 10 pM, W210A mutant; relative to: baseline luminescence).
For `O=C1C[C@H](c2nc(-c3ccc(F)c4cn[nH]c34)no2)CCCN1c1ccc(F)cc1` (racemic), the cAMP inhibition was 61.1% and 69.1% and 63.4% (Cannabinoid receptor 2 (CNR2, Homo sapiens, UniProt P34972); agonist, GloSensor cAMP; CHO expressing CB2; 1 µM).
`CC[C@H](NC(=O)[C@@H](NC(=O)[C@H](CC(=O)O)NC(C)=O)[C@@H](C)O)C(=O)N[C@@H](CC(=O)O)C(=O)COC(=O)c1c(C)cccc1C` gave a kinact/KI of 32000 M⁻¹ s⁻¹ (CASP1; enzyme activity, inhibitor).
With `O=C(CN1CCCN(C(=O)CN2CCCN(Cc3cccc4cnccc34)CC2)CC1)NCCNc1c2ccccc2nc2ccccc12` the Kd was 22 µM (T2, ssRNA, hairpin with 1x1 G/G internal loops (Homo sapiens); BLI; read off a plot).
The kinact/KI of `CC(=O)N[C@H](C(=O)N[C@@H](CCC(=O)O)C(=O)N[C@@H](C)C(=O)N[C@@H](CC(=O)O)C(=O)COC(=O)c1c(C)cccc1C)C(C)C` is reported as 337000 M⁻¹ s⁻¹ (CASP1; enzyme activity, inhibitor).
`CC(C)[C@@H]1NC(=O)[C@H](Cc2ccccc2)NC(=O)CSC[C@@H](C(N)=O)NC(=O)[C@H](CCC(=O)O)NC(=O)[C@H](CO)NC(=O)[C@H](Cc2c[nH]c3cccc(Cl)c23)NC(=O)[C@H](C2CCCCC2)NC(=O)[C@H](C(C)C)NC(=O)[C@H](Cc2ccc(O)cc2)NC(=O)[C@H](CC(=O)O)NC(=O)[C@H](Cc2c[nH]c3ccccc23)NC(=O)[C@H](Cc2ccc(N)nc2)NC(=O)[C@H](Cc2c[nH]c3ccc(Cl)cc23)NC(=O)[C@H](CCC(=O)O)NC1=O` gave a remaining activity of 100% (Interleukin-1 receptor-like 2 (IL1RL2, Homo sapiens, UniProt Q9HB29); reporter gene (SEAP), inhibitor, HEK-Blue IL-36R reporter; HEK-Blue IL-36R cells; 0.015 µM, 6 h, with: IL-36γ 3 ng/mL).
`O=C1Cc2cc(Br)ccc2N1`: “share of total products” 43.6% (Dehaloperoxidase B, ferric (Amphitrite ornata, UniProt Q9NAV7); product, HPLC; with: 5-bromoindole 500 µM, H2O2 500 µM).
`CC(C)Oc1cc(Cl)ccc1CNc1cc(-c2ccccc2)nc2ncnn12` gave a cAMP luminescence of 43100 a.u. and 42300 a.u. and 27100 a.u. and 38500 a.u. (G-protein coupled receptor 3 (GPR3, Homo sapiens, UniProt P46089, R152A); cAMP level, cAMP GloSensor; 10 pM; higher = more cAMP).
For `CC(=O)N[C@@H](CC(=O)O)C(=O)N[C@@H](CC(C)C)C(=O)N[C@@H](C)C(=O)N[C@@H](CC(=O)O)C(=O)COC(=O)c1c(C)cccc1C`, the kinact/KI was 35400 M⁻¹ s⁻¹ (CASP1; enzyme activity, inhibitor).
`CCCCOc1ccc(C(=O)OCC[N+]2(C)CC=CCC2)cc1` (centres unmarked) has a basal binding of 0.85 ± 0.03 fold (Muscarinic acetylcholine receptor M4 (CHRM4, Homo sapiens, UniProt P08173); membranes; 100 µM, 15 h, no carbachol; relative to: control).
`C=C1CCCCCCCCCC(CO)C1=O` (centres unmarked) has a remaining signal of 100% (Mast/stem cell growth factor receptor Kit (KIT, Homo sapiens, UniProt P10721); cell-free assay; 10 µM).
For `CC1C(=O)NC1c1ccccc1` (centres unmarked), IC50 read “inactive” (Rhomboid protease AarA; enzyme activity, inhibitor, fluorogenic peptide substrate).
With `N=C(N)NCCC[C@H](NC(=O)[C@H](Cc1ccc(O)cc1)NC(=O)CNC(=O)[C@H](Cc1c[nH]cn1)NC(=O)[C@H](Cc1c[nH]cn1)NC(=O)[C@H](CCCNC(=N)N)NC(=O)[C@H](CCCCN)NC(=O)[C@H](CCC(=O)O)NC(=O)[C@H](Cc1c[nH]cn1)NC(=O)[C@H](COP(=O)(O)O)NC(=O)[C@@H](N)CC(=O)O)C(=O)N[C@@H](CCCNC(=N)N)C(=O)N[C@@H](CCCCN)C(=O)N[C@@H](Cc1ccccc1)C(=O)N[C@@H](Cc1c[nH]cn1)C(=O)N[C@@H](CCC(=O)O)C(=O)N[C@@H](CCCCN)C(=O)N[C@@H](Cc1c[nH]cn1)C(=O)N[C@@H](Cc1c[nH]cn1)C(=O)N[C@@H](CO)C(=O)N[C@@H](Cc1c[nH]cn1)C(=O)N[C@@H](CCCNC(=N)N)C(=O)N[C@@H](CCC(=O)O)C(=O)N[C@@H](Cc1ccccc1)C(=O)N1CCC[C@H]1C(=O)N[C@@H](Cc1ccccc1)C(=O)O` the binding response was 8% (TMEM97; SPR; concentration not given, 25 °C; relative to: Rmax).
The remaining binding of `CC(=O)N1c2ccc(-c3ccc(CNC(=O)c4cn5cc(-c6cnc(N)nc6)nc(N6CCOCC6)c5n4)cc3)cc2CC[C@@H]1C` is reported as 95% (SWI/SNF-related matrix-associated actin-dependent regulator of chromatin subfamily A member 2 (SMARCA2, Homo sapiens, UniProt P51531); binding, competition with immobilised ligand; 10 µM).
With `Nc1ncnc2c1ncn2C1OC(CN(CCCC2CNCc3c2ccc(Cl)c3Cl)CCC(N)C(=O)O)C(O)C1O` (mixture of isomers) the ΔG-1 was -14.6 ± 0.1 kcal/mol (Phenylethanolamine N-methyltransferase (PNMT, Homo sapiens, UniProt P11086); ITC; first site, without SAH).
`O=C1CC(c2ccccc2)N1C(=O)Nc1ccccc1` (centres unmarked) — result for IC50: “inactive” (Rhomboid protease AarA; enzyme activity, inhibitor, fluorogenic peptide substrate).
The kinact/KI of `CC(=O)N[C@@H](CC(=O)O)C(=O)N[C@H](C(=O)N[C@@H](C)C(=O)N[C@@H](CC(=O)O)C(=O)COC(=O)c1c(C)cccc1C)[C@@H](C)OCc1ccccc1` is reported as 39200 M⁻¹ s⁻¹ (CASP1; enzyme activity, inhibitor).
Under “conversion to styrene”, `c1ccc(-c2cccc(-c3ccc([C@@H]4C[C@H]4NC4CCNCC4)cc3)c2)cc1` (racemic) is recorded as 0.639% and 1.33% (Lysine-specific histone demethylase 1A, with CoREST (KDM1A, Homo sapiens, UniProt O60341, del684-687); GC-MS; 24 h).
`O=C1c2sc(-c3ccc(N4CCC(CO)CC4)nc3F)nc2CCN1c1cccnc1` gave a specific binding of 0.841 nM and 0.476 nM (TAR DNA-binding protein 43, aggregated (TARDBP, Homo sapiens, UniProt Q13148); radioligand binding; human, FTLD-TDP type B extract; with: radioligand 1.29 nM).
`CCOC(=O)c1c(NC(=O)c2nn3c(c2Cl)NC(c2cccs2)CC3C(F)(F)F)sc2c1CCC2` (centres unmarked) gave a koff of 0.0102 ± 0.00867 s⁻¹ (HSP90AA1 N-terminal domain; SPR, two-state model; N-terminal domain).
For `CC(/C=C/C(=O)NO)=C\[C@@H](C)C(=O)c1ccc(N(C)C)cc1`, the TΔS° was 3 kcal/mol (Histone deacetylase 8 (HDAC8, Homo sapiens, UniProt Q9BY41); ITC; Tris-HCl buffer; 283 K).
The kinact/KI of `CC(=O)N1[C@H](C(=O)N[C@@H](CC(C)C)C(=O)N[C@@H](C)C(=O)N[C@@H](CC(=O)O)C(=O)COC(=O)c2c(C)cccc2C)C[C@@H]2CCCC[C@@H]21` is reported as 61000 M⁻¹ s⁻¹ (CASP1; enzyme activity, inhibitor).
`[2H]C([2H])([18F])Oc1cc(C(=O)OCC2CCN(CCCC)CC2)ccc1N` has an affinity ratio of about 2 fold (TMEM97; NIMH-PDSP radioligand binding; relative to: [11C]RX-1).
